Measured values pooled from the literature.
± gives the spread as reported.
POLH: DNA polymerase eta (POLH, Homo sapiens, UniProt Q9Y253)
Chain of UniProt Q9Y253 (whole entry, looked up): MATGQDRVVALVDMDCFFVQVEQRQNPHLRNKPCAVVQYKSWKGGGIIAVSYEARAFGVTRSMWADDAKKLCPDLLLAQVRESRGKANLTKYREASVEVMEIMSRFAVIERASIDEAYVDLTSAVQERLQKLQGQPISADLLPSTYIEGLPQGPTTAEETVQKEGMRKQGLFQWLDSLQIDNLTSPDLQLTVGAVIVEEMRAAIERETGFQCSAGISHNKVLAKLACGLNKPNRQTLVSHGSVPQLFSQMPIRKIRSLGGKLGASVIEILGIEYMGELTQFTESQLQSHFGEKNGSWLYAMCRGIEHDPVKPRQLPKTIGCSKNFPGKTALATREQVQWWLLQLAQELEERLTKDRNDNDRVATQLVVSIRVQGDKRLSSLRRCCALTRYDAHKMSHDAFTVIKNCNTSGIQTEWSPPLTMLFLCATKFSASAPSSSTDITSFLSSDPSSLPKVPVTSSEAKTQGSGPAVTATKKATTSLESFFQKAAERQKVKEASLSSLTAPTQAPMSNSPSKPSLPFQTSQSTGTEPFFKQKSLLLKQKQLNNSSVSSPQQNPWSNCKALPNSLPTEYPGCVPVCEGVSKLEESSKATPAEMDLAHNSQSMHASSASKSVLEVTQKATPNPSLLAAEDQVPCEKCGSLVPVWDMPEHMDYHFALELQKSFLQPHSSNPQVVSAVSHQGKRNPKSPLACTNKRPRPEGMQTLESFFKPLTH
Chain of UniProt Q9Y294 (whole entry, unmodified, looked up): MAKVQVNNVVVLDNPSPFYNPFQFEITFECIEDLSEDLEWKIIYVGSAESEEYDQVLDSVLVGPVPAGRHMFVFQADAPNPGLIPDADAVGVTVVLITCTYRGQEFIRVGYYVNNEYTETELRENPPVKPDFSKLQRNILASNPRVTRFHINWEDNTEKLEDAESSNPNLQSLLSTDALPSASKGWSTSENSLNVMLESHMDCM
Chain of UniProt Q8N884 (whole entry, looked up): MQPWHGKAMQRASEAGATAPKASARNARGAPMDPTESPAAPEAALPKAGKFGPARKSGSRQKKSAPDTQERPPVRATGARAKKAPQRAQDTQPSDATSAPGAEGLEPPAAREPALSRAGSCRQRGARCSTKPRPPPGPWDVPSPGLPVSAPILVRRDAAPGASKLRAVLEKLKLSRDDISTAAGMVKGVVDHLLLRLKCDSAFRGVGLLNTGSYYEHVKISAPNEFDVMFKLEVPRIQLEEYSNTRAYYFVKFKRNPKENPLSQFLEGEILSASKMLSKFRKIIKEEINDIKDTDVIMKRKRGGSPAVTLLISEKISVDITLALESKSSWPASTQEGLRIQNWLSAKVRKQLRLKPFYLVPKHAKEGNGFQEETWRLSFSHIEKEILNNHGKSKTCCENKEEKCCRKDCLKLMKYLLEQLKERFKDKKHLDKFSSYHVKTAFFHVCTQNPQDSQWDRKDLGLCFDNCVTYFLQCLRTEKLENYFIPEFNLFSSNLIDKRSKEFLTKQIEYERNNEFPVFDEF
Chain of UniProt P01024 (whole entry, looked up): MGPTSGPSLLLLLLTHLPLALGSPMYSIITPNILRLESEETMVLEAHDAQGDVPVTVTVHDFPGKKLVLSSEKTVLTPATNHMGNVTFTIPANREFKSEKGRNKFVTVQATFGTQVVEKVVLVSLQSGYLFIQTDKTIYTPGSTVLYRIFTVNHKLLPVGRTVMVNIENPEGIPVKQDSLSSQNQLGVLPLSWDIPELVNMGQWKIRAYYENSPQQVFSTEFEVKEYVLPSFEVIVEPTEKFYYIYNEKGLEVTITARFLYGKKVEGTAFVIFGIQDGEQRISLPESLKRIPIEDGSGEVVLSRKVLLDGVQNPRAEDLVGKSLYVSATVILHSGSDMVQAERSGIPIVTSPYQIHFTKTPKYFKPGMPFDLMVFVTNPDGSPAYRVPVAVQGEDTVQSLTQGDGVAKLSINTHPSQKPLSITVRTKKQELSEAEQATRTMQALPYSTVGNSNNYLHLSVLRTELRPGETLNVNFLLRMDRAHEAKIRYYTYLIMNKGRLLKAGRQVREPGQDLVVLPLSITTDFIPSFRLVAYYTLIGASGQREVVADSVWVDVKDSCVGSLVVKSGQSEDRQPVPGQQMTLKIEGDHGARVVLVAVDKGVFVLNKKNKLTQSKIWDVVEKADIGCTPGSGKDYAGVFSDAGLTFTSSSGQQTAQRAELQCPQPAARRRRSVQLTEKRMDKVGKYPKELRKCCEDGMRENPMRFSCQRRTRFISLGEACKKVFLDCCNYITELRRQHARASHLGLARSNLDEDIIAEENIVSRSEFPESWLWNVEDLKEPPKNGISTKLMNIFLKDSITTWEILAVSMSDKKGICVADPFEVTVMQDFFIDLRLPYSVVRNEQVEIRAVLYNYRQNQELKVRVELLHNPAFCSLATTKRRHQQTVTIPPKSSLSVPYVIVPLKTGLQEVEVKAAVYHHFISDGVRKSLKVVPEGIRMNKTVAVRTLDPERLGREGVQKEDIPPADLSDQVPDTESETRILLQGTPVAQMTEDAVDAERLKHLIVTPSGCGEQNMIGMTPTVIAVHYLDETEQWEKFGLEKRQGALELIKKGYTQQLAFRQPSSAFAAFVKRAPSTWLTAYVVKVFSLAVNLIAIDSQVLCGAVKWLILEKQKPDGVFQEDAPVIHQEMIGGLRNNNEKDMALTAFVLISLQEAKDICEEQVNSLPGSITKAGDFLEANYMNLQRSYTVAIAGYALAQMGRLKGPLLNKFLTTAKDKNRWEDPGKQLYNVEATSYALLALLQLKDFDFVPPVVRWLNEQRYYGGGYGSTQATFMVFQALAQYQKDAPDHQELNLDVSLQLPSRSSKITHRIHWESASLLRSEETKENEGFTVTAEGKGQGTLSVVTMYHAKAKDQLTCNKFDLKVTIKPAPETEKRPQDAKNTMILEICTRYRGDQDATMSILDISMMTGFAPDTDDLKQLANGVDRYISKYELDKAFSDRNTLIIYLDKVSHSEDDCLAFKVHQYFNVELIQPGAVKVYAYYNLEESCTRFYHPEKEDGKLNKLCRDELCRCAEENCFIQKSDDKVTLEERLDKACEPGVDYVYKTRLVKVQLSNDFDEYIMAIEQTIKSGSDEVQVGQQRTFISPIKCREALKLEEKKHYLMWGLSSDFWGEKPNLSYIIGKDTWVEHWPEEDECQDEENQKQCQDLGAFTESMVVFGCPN
Chain of UniProt P19099 (whole entry, looked up): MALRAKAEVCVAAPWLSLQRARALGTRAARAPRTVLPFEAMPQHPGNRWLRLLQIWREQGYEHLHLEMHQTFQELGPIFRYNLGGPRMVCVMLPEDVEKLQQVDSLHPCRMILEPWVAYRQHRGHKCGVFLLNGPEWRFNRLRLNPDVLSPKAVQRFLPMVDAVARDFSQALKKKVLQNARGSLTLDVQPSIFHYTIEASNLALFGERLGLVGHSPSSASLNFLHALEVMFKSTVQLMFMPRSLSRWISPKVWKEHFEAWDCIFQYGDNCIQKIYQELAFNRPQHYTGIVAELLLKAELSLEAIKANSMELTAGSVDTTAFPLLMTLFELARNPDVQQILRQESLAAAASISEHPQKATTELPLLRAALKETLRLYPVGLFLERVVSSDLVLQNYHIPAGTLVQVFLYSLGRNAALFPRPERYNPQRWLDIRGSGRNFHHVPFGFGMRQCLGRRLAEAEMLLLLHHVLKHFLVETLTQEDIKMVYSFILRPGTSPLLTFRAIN
Chain of UniProt Q86YB8 (whole entry, looked up): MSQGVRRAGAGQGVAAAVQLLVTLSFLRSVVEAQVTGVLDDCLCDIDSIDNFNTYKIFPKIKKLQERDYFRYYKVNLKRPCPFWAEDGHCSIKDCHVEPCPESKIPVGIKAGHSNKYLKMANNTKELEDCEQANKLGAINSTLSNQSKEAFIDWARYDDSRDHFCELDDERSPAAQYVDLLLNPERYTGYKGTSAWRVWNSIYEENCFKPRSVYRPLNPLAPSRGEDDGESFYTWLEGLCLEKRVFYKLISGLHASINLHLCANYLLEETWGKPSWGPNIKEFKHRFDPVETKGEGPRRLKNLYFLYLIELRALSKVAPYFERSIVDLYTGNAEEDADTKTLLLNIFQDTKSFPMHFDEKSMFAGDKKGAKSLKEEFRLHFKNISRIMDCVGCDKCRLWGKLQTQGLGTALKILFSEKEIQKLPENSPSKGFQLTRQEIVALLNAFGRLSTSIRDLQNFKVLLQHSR

`Cc1ncsc1-c1ccc(C(CO)NC(=O)C2CC(O)CN2C(=O)C(C(C)C)n2cc(-c3ccc(COc4c(-c5c(C)c(F)cc6[nH]ncc56)c(C5CC5)cc5c(N6CC7CC6CN7)nc(OC6CCOCC6)nc45)cc3)nn2)cc1` (stereo not shown) gave a protein degradation of 93% (GTPase KRas (KRAS, Homo sapiens, UniProt P01116, G12D); degrader; mouse PK-59 xenograft, tumour; intravenous, 30 mg/kg single, 24 h).
Under binding, `Cn1ccc(-c2cc(Cl)c(Cl)c3[nH]c4c(c23)CN(C(=O)CO)CC4)n1` is recorded as “no binding” (CGAS (Homo sapiens, UniProt Q8N884); surface plasmon resonance; concentration not given, with: dsDNA).
`Cc1cc(Nc2cc(CN(C)C)cc(NC(=O)c3cccc(Nc4ccnc5ccccc45)c3)c2)nc(N)n1` has a kcat of 0.0833 s⁻¹ (POLH; dATP incorporation; 15 µM).
For `CC[C@@H]1NC(=O)CNC(=O)[C@H](Cc2c[nH]c3ccccc23)NC(=O)[C@H](CC(=O)O)NC(=O)[C@H](CCC(N)=O)NC(=O)[C@H](Cc2c[nH]c3ccccc23)NC(=O)[C@H](C(C)C)NC(=O)[C@@H](NC(=O)[C@@H](NC(C)=O)[C@@H](C)CC)CSSC[C@@H](C(=O)N[C@H](C(N)=O)[C@@H](C)O)NC(=O)[C@H](CCCNC(=N)N)NC(=O)[C@H](Cc2c[nH]cn2)NC1=O`, the koff was 0.141 ± 0.021 s⁻¹ (Complement C3, C3b fragment (Homo sapiens, UniProt P01024); SPR; pH 7.4, 25 °C).
`Nc1ncnc2c1ncn2[C@H]1C[C@H](O)[C@@H](COP(=O)(O)OP(=O)(O)[C@@H](Cl)P(=O)(O)O)O1` — result for “delta effective pKa4”: 0.4 pK units (POLH; dNTP incorporation, single-turnover kinetics; W sequence, A·T pair; relative to: non-enzymatic LFER line).
For `CC[C@H](C)[C@H](NC(=O)[C@H](CCCNC(=N)N)NC(=O)NC[C@H](CCC(N)=O)NC(=O)NC[C@H](CC(C)C)NC(=O)NC[C@H](CCCNC(=N)N)NC(=O)NC[C@H](C)NC(=O)[C@H](CCCCN)NC(=O)[C@H](CCC(=O)O)NC(C)=O)C(=O)N[C@@H](C)C(N)=O`, the -TΔS was -19.7 ± 2.09 kJ/mol (Histone chaperone ASF1A (Homo sapiens, UniProt Q9Y294); isothermal titration calorimetry; pH 7.5, 20 °C).
With `Nc1ncnc2c1ncn2[C@@H]1O[C@H](CO)[C@@H](O[C@H]2O[C@H](CO)[C@@H](OP(=O)(O)O)[C@H](OP(=O)(O)O)[C@H]2O)[C@H]1O` the ΔpKd was 1.54 ± 0.14 (Inositol 1,4,5-trisphosphate-gated calcium channel ITPR1, IP3-binding core (Itpr1, Rattus norvegicus, UniProt P29994, R504Q); binding, 3H-IP3 competition; IP3-binding core, unit not given; relative to: R504Q over wild type).
For `CN(C)c1ccc(/C=C2\Oc3cc(O)ccc3C2=O)cc1`, “shift of aggregation temperature” read “no effect” (ERO1-like protein beta (ERO1B, Homo sapiens, UniProt Q86YB8); CETSA; PC-9; 100 µM).
`OC[C@H]1O[C@@H](OCc2cn([C@@H]3O[C@H](CO)[C@@H](n4cc(CCCCc5cn([C@H]6[C@H](O)[C@@H](O)[C@H](n7cc(CO[C@@H]8O[C@H](CO)[C@H](O)[C@H](O)[C@H]8O)nn7)O[C@@H]6CO)nn5)nn4)[C@H](O)[C@H]3O)nn2)[C@H](O)[C@@H](O)[C@H]1O` has a ΔG of -45.2 ± 0.586 kJ/mol (lecA (Pseudomonas aeruginosa, UniProt Q05097); isothermal titration calorimetry; 25 °C).
`C[C@]12CC[C@H]3[C@@H](CCC4=CC(=O)CC[C@@]43C)[C@@H]1CC[C@@H]2C(=O)CO`: “maximal absorbance change” 0.093 (CYP11B2 (Homo sapiens, UniProt P19099); binding, spectral titration; CYP11B2 1 µM, with: adrenodoxin 10-fold).

For quick reference, copied from above:
`C[C@]12CC[C@H]3[C@@H](CCC4=CC(=O)CC[C@@]43C)[C@@H]1CC[C@@H]2C(=O)CO`: “maximal absorbance change” 0.093 (CYP11B2 (Homo sapiens, UniProt P19099); binding, spectral titration; CYP11B2 1 µM, with: adrenodoxin 10-fold).
